Results collected from several papers.
A part holds a random share of what one study measured.

Series 1
Target: Histone acetyltransferase KAT6A, both winged helices, GST fusion (KAT6A, Homo sapiens, UniProt Q92794, residues 1-181)
Method: protein binding microarray
Molecule type: double-stranded DNA, one strand shown
Sample: in vitro
Tested at: not given
Setting: 8-mer, flanks averaged, mean of 2 arrays, mostly near background
Reference: not given
Direction: higher = stronger binding
Residues (chain): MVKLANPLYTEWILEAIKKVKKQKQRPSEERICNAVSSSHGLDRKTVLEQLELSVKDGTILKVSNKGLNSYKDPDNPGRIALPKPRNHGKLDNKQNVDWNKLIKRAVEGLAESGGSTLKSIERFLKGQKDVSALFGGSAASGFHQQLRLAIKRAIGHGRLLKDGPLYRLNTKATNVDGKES
With `AACTGCAC` the E-score was -0.142.
`GGTTAGGA` gave an E-score of -0.177.
With `CCAACCCA` the E-score was -0.264.
With `CTGATCGA` the E-score was -0.114.
`ATGAGGTA` gave an E-score of -0.186.
The E-score of `GCATACAA` is reported as 0.00362.
For `CGACGACC`, the E-score was -0.00974.
`GGCACGAC` has an E-score of -0.0758.
`GGTTTGAA` has an E-score of 0.000435.
The E-score of `TAAATGAA` is reported as -0.136.
`TACAAGTA` gave an E-score of -0.151.
With `AGTAGGAT` the E-score was -0.239.
`AGCGAGAT` has an E-score of 0.117.

Series 2
Target: Sal-like protein 4, full length isoform A (SALL4, Homo sapiens, UniProt Q9UJQ4, residues 1-1053)
UniProt Q9UJQ4, sequence (whole entry, looked up): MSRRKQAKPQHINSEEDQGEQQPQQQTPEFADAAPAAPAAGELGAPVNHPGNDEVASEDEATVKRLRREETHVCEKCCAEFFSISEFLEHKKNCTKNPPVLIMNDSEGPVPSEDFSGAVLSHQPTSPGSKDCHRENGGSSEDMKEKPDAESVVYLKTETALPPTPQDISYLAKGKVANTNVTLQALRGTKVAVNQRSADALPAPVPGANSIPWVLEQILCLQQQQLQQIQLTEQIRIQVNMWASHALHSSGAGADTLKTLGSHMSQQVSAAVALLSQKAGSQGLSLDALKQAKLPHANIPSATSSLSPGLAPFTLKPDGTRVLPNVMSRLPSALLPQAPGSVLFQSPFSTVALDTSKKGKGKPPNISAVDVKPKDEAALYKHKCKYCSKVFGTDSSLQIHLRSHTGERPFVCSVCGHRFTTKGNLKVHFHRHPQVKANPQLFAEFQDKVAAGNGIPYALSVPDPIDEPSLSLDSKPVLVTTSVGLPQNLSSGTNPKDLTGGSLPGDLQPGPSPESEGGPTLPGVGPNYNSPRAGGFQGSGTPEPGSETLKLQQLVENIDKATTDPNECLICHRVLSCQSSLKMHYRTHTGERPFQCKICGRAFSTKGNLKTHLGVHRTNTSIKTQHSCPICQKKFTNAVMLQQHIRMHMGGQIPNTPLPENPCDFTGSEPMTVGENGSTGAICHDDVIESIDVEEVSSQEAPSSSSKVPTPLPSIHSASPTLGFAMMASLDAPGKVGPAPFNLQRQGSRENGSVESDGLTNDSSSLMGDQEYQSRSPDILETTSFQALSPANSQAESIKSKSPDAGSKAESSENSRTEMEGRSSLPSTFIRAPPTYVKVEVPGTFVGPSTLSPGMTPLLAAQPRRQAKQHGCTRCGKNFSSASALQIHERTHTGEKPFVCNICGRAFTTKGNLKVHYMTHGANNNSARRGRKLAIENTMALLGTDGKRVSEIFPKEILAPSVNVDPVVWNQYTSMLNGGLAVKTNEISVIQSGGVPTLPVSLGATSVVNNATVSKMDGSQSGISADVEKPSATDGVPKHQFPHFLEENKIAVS
Method: universal PBM
Molecule type: double-stranded DNA, one strand shown
Sample: in vitro
Tested at: 600 nM
Setting: 8-mer, flanks averaged, mean of replicates
Direction: higher = stronger binding
`GTGCGCTA` gave an E-score of -0.151.
With `GCCACGCA` the E-score was -0.262.
For `CACCTTCC`, the E-score was -0.203.
The E-score of `ACCAGGCT` is reported as -0.214.
For `TGGTGACA`, the E-score was 0.024.
The E-score of `GCAATTGC` is reported as 0.261.
`CCACTGCA` has an E-score of -0.0937.
`CCCCTACC` has an E-score of -0.233.
`AAAAGCAT` gave an E-score of 0.228.
`GCATACCA` gave an E-score of -0.113.
For `CGGCCGAA`, the E-score was -0.194.
For `TAGGGAGA`, the E-score was 0.0185.

Series 3
Target: RNA binding protein fox-1 homolog 2, RRM domain, GST-SBP tag (RBFOX2, Homo sapiens, UniProt O43251-10, residues 100-194)
Method: RNA Bind-n-Seq
Molecule type: RNA
Sample: in vitro
Tested at: 365 nM
Setting: natural RNA segment, single round, ends assumed
Reference: no-protein control
Direction: higher = stronger binding
Shared flanks, not repeated: GGGAGUUCUACAGUCCGACGAUC … UGGAAUUCUCGGGUGCCAA
Construct (chain): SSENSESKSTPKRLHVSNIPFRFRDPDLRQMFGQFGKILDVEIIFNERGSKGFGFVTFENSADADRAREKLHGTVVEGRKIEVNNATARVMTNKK
Under “RBNS enrichment (R)”, `AAUCUGUAAAUGAUGGCUUGAUGUACAGAAAAUGUAUUUUUGCUUAAAAGAUGCCUGGGUACCUUUUAUUUUAUGGCAUUUGUAUUAAAAAUAAAGUAUGAUGGUAAGAA` is recorded as 0.679.
`AAAACAAAUCUAAUGGUGCUUUUACCACAAUAUGUUAACUACAUUAAAUGCUAAUUAAUUAUUUUCUGUUAUCAAAGCACAUGACUAAAAUGAAAUCAUGGUAUCUGUUA` — result for “RBNS enrichment (R)”: 0.452.
Under “RBNS enrichment (R)”, `CCUUAACUGGUAUCAAACAGUGUCACUGAGAUAUUUUCAAAGAACACUGAAUUGUAUUUAAUCAGCGUGUAUUCCAUUUGCAUUGAAGCAUUAAAGAUUAUUUUCCUUAA` is recorded as 0.505.
`AGCUGGGAGGGCUCUUCUGGGCGUCCGGGCAGCUGCAGCUGAGAGGACUUUCACACCAUAAGGAGAUUUCUGUUUUUCUUUUUGGCUGUUAAUGCUUGUCUAUAACAUUG` — result for “RBNS enrichment (R)”: 0.502.
`AAUGUCAGUGACAUUUUUUUAUUUUUGAAGUACUUUGACACUCCCAGCCUCUACUUUAUUAGAAUUGGAAGACGAAUUUUUCUUCAAAAGCCUUCUACAGACAAAUACUU`: “RBNS enrichment (R)” 0.599.
For `GCAAGUGGGACCUUGCUGGGCAUUAUAUGCCCUGUGGGGGUUUCAGAGACCCUGAAAGAGGAGGGAGGACCCGCCUCCUUGUCUGCACAACUGCAUGCACUUCUCUCCCC`, “RBNS enrichment (R)” read 1.59.
`UUGUCCUUGGGUCACCCUGCAUUCCAUAGCCAUGUGCUUGUCCCUGUGCUCCCACGGUUCCCAGGGGCCAGGCUGGGAGCCCACAGCCACCCCACUAUGCCGCAGGCCGC`: “RBNS enrichment (R)” 0.289.
Under “RBNS enrichment (R)”, `GGCAAGUCCCCAAACCUCCUUGUGCCUCAGUUUCCCCAUCUGGAAAAAAUGGGGCCACCUCUUGCCAGCAGUAGCAGGGCUGCCCAUGCCCCUUCCUCCCCAUGCCCCAU` is recorded as 0.779.
`GAGCAGUGAAUGUCACUUUACAUGGCUGUUUCUGUCACAUGUUCAUAUCUGAACAUUUUUGGUUAUAACUUUUUUAUUGCCUUUGGCUGUUGAUUAGUACAAGUGCAAUU`: “RBNS enrichment (R)” 0.337.
Under “RBNS enrichment (R)”, `UUGCCUACACUUUCUAUGAAUAACAAGUCAUUUCUGGUUUACACUGUCUUUUUAGAGGAAAAGGACUCUGUAGAACAGAUAUUAUAUUUAUACUUUGUUCCUCCUGCCCA` is recorded as 1.14.
Under “RBNS enrichment (R)”, `UGAGAGAAGAGAGACCGAGGGGGGAGAAAGAGCUCUUCAUUUGGAGCAGUCCUUCAAUCUCAGAACCCCAGGAGGCCCCACAGGAGUUGCCCUCCUCCUUCAGCCUGCCC` is recorded as 0.51.
`UGUUUUUCCUCUCCUUUUGAGAAUUUUCUUUUGUAAAAGAAAAAUAUUUUUUAAACCGAAAUCUGUGGAUGAAAUAGAAGCUGGAGCCCUCCUCUUGGAAUAUUCAGCCU` — result for “RBNS enrichment (R)”: 0.398.

Further values, each from its own experiment
With `PhoQ, residues 284 288 289 292 302 303 GANMMA` the fold induction was 1.09 (PhoP, residues 12 14 15 18 19 NQFFI (Escherichia coli, UniProt P23836); Sort-seq, measured: YFP reporter; E. coli; PhoQ-PhoP variant library, with: 10 µM Mg2+; reference: high Mg2+ state, higher = stronger signaling).
